Published values collected from several papers.
Each line is one published result; not all experiments were run side by side. ± gives the spread as reported.
PFF0160c E182D: Dihydroorotate dehydrogenase (quinone), mitochondrial (PFF0160c, Plasmodium falciparum, UniProt Q08210, E182D)
Mapk1: Mitogen-activated protein kinase 1 (Mapk1, Rattus norvegicus, UniProt P63086)
CA1: Carbonic anhydrase 1 (CA1, Homo sapiens, UniProt P00915)
Transcriptional regulator PlcR: Transcriptional regulator PlcR (Bacillus thuringiensis, UniProt A0ACM8Q0N2)

Structure (SMILES)	tested on	assay	system	setting	scale	measurement	result
COC1=C(N)C(=O)c2nc(-c3nc(C(=O)O)c(C)c(-c4ccc(OC)c(OC)c4O)c3N)ccc2C1=O	Histone-lysine N-methyltransferase NSD2 (NSD2, Homo sapiens, UniProt O96028)	enzyme activity, inhibitor, AlphaLISA	–	–	–	IC50	120 nM
CN(C)[C@H]1C[C@@]23CC[C@@]4(O2)C(=CC[C@]2(C)[C@@H](c5ccc6ccncc6c5)CC[C@H]24)C=C3[C@@H](O)[C@@H]1O	Kinase suppressor of Ras 1 (KSR1, Homo sapiens, UniProt Q8IVT5)	ATP probe labelling, inhibitor, KiNativ profiling	–	1 µM	–	inhibition	0.5%
Cc1nnc(C(C)C)n1C1CC2CCC(C1)N2CCC(NC(=O)Cc1ccc(-c2nncnn2)cc1)c1ccccc1 (stereo not shown)	C-C chemokine receptor type 5 (CCR5, Homo sapiens, UniProt P51681)	calcium mobilization, antagonist	HEK-293T	2 h preincubation, top constrained to 1, with: 0.1 µM PSC-RANTES	–	IC50	8.91 nM
O=C1NC2(CC2)COc2ncc(F)cc2[C@H]2COCCN2c2ccn3ncc1c3n2	–	–	Sprague-Dawley rat, female, serum	oral, 20 mg/kg/day, end of recovery, 4-week subacute toxicity	–	serum total protein	65.1 ± 3.6 g/L
COc1ccccc1-n1ccnc1SCC(=O)Nc1cc(C(F)(F)F)ccc1Cl	PFF0160c E182D	enzyme activity, inhibitor, absorbance	–	–	–	IC50	92.1 nM
Cc1[nH]c(C)c(S(=O)(=O)NC2CCCCC2)c1C(=O)N1CCCC1	D(3) dopamine receptor (DRD3, Homo sapiens, UniProt P35462)	Go activation, antagonist, BRET	–	with: dopamine	–	IC50	> 100000 nM
CCCN(Cc1nnc(-c2ccco2)o1)C(=O)C1CCCN(C(=O)c2ccc(Cl)cc2)C1 (stereo not shown)	Dihydroorotate dehydrogenase (quinone), mitochondrial (PFF0160c, Plasmodium falciparum, UniProt Q08210)	enzyme activity, inhibitor, absorbance	–	–	–	IC50	514 nM
CC[C@H](C)[C@H](NC(=O)[C@H](CCCNC(=N)N)NC(=O)[C@H](CC(C)C)NC(=O)CNC(=O)[C@H](CCCCN)NC(=O)[C@H](CCCCN)NC(=O)[C@H](CCCNC(=N)N)NC(=O)[C@H](CCCCN)NC(=O)[C@H](CCCCN)NC(=O)[C@H](CCCCN)NC(=O)[C@H](C)NC(=O)[C@@H]1CCCN1C(=O)[C@H](C)NC(=O)[C@@H](N)Cc1ccc(O)cc1)C(=O)N[C@@H](CCCCN)C(=O)NCC(=O)O	Mapk1	enzyme activity, inhibitor, fluorescence	–	pH 7.4	–	IC50	10100 nM
CC(C)[C@H]1NC(=O)C[C@H]2/C=C/CCSSC[C@@H](NC1=O)C(=O)N[C@H](Cc1cccc3ccccc13)C(=O)NCC(=O)O2	STE20-like serine/threonine-protein kinase (SLK, Homo sapiens, UniProt Q9H2G2)	enzyme activity, inhibitor	–	10 µM	–	inhibition	8.1%
COc1ccc(S(=O)(=O)Oc2ccc(/C=N/NS(=O)(=O)c3cc(Cl)ccc3Cl)cc2)cc1	CA1	enzyme activity, inhibitor, absorbance	–	–	–	IC50	499 nM
O=C(O)CCn1c(=O)oc2cc(Cl)c(Cl)cc21	Potassium voltage-gated channel subfamily KQT member 1, with KCNE1 (KCNQ1, Homo sapiens, UniProt P51787)	ion current, blocker	–	–	–	IC50	> 25100 nM
C=C1NC(=O)[C@H](CCSC)NC(=O)[C@H](Cc2ccc(O)cc2)NC(=O)[C@H](CC(N)=O)NC(=O)CNC(=O)CNC(=O)[C@H](CC(N)=O)NC(=O)[C@H](Cc2c[nH]cn2)NC(=O)[C@H](CCC(=O)O)NC(=O)[C@H](Cc2ccc(O)cc2)NC(=O)[C@H](CO)NC(=O)[C@H](Cc2c[nH]c3ccccc23)NC(=O)[C@H](Cc2c[nH]c3ccccc23)NC(=O)c2ccc(-c3nc(C(=O)OC)cs3)nc2-c2csc1n2	TRAF2 and NCK-interacting protein kinase (TNIK, Homo sapiens, UniProt Q9UKE5)	enzyme activity, inhibitor, ADP detection	–	–	–	IC50	2500 nM
O=C(CF)N[C@H]1[C@H]([C@H](O)[C@H](O)CNC(=O)c2ccc(Oc3ccccc3)cc2)O[C@@](OCc2cccc(Cl)c2Cl)(C(=O)O)C[C@@H]1O	B-cell receptor CD22 (CD22, Homo sapiens, UniProt P20273)	ligand binding, inhibitor, competitive bead binding flow cytometry	–	with: 6'SLN(Gc)-PAA-biotin beads	–	IC50	1010 ± 20 nM
O=C1NC(=O)c2c1c1cc(F)c[n+]3c1c1c2c2cc(O)ccc2[n]1[Ru-4]312([N]=C=S)[S+]3CC[S+]1CC[S+]2CC3 (stereo not shown)	Protein-tyrosine kinase 2-beta (PTK2B, Homo sapiens, UniProt Q14289)	enzyme activity	–	100 nM, human enzyme, with: 10 µM ATP	relative to: untreated	remaining activity	40%
CC(=O)C1CCC2(C)C(CCC3C4CCC(O)C4(C)CCC32)C1 (stereo not shown)	Androgen receptor (AR, Homo sapiens, UniProt P10275)	nuclear translocation, antagonist	–	–	–	IC50	600 nM
CN1CCCCC1C(=O)NC(Cc1ccc(-c2ccccc2)cc1)B(O)O (stereo not shown)	Proteasome subunit beta type-10 / Proteasome subunit beta type-3 (Homo sapiens, UniProt P40306+P49720)	β2i activity, inhibitor	–	immunoproteasome, with: Ac-KQL-AMC	–	IC50	> 10000 nM
CC[C@H](C)[C@H](NC(=O)[C@H](CC(C)C)NC(=O)[C@H](C)NC(=O)[C@@H]1CCCN1C(=O)[C@H](C)NC(=O)[C@H](CCCNC(=N)N)NC(=O)[C@@H]1CCCN1C(=O)[C@H](CCCNC(=N)N)NC(=O)[C@H](CCC(N)=O)NC(=O)[C@H](CCCCN)NC(=O)[C@@H]1CCCN1C(=O)[C@H](C)NC(=O)[C@@H](N)Cc1ccc(O)cc1)C(=O)N[C@H](C(=O)N1CCC[C@H]1C(=O)N[C@H](C(=O)O)[C@@H](C)O)[C@@H](C)CC	Mapk1	enzyme activity, inhibitor, fluorescence	–	pH 7.4	–	IC50	> 200000 nM

Structure (SMILES)	tested on	assay	system	setting	scale	measurement	result
O=S(=O)(F)c1cccc(S(=O)(=O)Nc2ccc(C3CC3)cc2F)c1	GTPase KRas, with RAF (KRAS, Homo sapiens, UniProt P01116)	RAF-KRAS interaction, inhibitor, NanoBRET	HEK293T	24 h	–	IC50	29000 ± 9000 nM
COc1ccccc1-c1n[nH]c2nc(NC3CCN(C(=O)Cc4ccc(F)cc4F)CC3)ncc12	–	bead binding, competition bead pull-down, measured: LINJ.36.0800	Leishmania donovani extract	10 µM	relative to: vehicle	relative abundance	0.95
O=C(Nc1ccc(-c2ccccc2)cc1)N[C@H]1[C@H]([C@H](O)[C@H](O)CO)OC(C(=O)O)=C[C@@H]1O	Sialidase-4 (Homo sapiens, UniProt Q8WWR8)	enzyme activity, inhibitor	–	–	–	IC50	> 500000 nM
CC(C)(C)C(=O)OCOP(=O)(OCOC(=O)C(C)(C)C)C1CCCN(O)C1=O (stereo not shown)	NCI-H226	–	–	–	–	log LC50	> -4 log M
CC[C@H](C)[C@H](NC(=O)[C@H](CO)NC(=O)[C@H](Cc1ccc(O)cc1)NC(=O)[C@H](Cc1ccc(O)cc1)NC(=O)[C@H](CC(N)=O)NC(=O)CNC(=O)[C@H](CO)NC(=O)[C@H](Cc1ccc(O)cc1)NC(=O)[C@H](CO)NC(=O)[C@H](CO)NC(=O)[C@H](CC(N)=O)NC(=O)COCCOCCNC(=O)CN1CCN(CC(=O)O)CCN(CC(=O)O)CCN(CC(=O)O)CC1)C(=O)N[C@@H](CC(C)C)C(N)=O [copper-64 labelled]	–	dynamic PET	KPC mouse Ptf1a-CreER tdTomato, pancreas	intravenous, 4.6 MBq/mouse, 27.5 min, 84 d after tamoxifen	–	tissue uptake	12.4 %ID/mL
CCCCCCCCCCCCCCCCCC(=O)NC[C@H]1CC[C@H](C(=O)N[C@@H](CCC(=O)NCCCOCCOCCOCCCNC(=O)COCC(=O)N[C@@H](Cc2ccc(O)cc2)C(=O)NC(C)(Cc2ccccc2)C(=O)N[C@@H](CC(C)C)C(=O)N[C@@H](CCCC)C(=O)N[C@@H](CCCNC(=N)N)C(=O)N2CCC[C@H]2C(=O)N[C@@H](CCCNC(=N)NC)C(=O)N[C@@H](CC(N)=O)C(N)=O)C(=O)O)CC1 (stereo partly shown)	Neuromedin-U receptor 1 (NMUR1, Homo sapiens, UniProt Q9HB89)	ligand displacement, radioligand	–	cell membranes	–	IC50	2.9 nM
CC[C@H](C)[C@H](NC(=O)[C@H](CCCCN)NC(=O)[C@H](CC(C)C)NC(=O)[C@@H]1CCCN1C(=O)[C@H](CCCNC(=N)N)NC(=O)[C@@H]1CCCN1C(=O)[C@H](CCCCN)NC(=O)[C@@H](NC(=O)[C@H](CCCCN)NC(=O)[C@H](CC(N)=O)NC(=O)[C@H](CCCCN)NC(=O)[C@@H](NC(=O)[C@H](C)NC(=O)[C@@H](N)Cc1ccc(O)cc1)[C@@H](C)O)C(C)C)C(=O)N[C@H](C(=O)N[C@@H](CCCNC(=N)N)C(=O)O)[C@@H](C)CC	Mapk1	enzyme activity, inhibitor, fluorescence	–	pH 7.4	–	IC50	7750 nM
CC(C)C[C@H](NC(=O)[C@H](CC(=O)O)NC(=O)[C@@H](N)CC(C)C)C(=O)N1CCC[C@H]1C(=O)N[C@@H](Cc1ccccc1)C(=O)N[C@H](CCC(=O)O)C(=O)N[C@@H](Cc1ccccc1)C(N)=O	Transcriptional regulator PlcR	reporter gene, inhibitor, lacZ reporter	407 Cry−	1 h, phase, late exponential, added at	–	IC50	752 ± 111 nM
CC(C)C[C@H](NC(=O)[C@H](CCCCN)NC(=O)[C@H](CO)NC(=O)[C@H](CCCNC(=N)N)NC(=O)[C@H](C)NC(=O)[C@@H](N)Cc1ccc(O)cc1)C(=O)N[C@@H](CCCNC(=N)N)C(=O)N[C@@H](CCCCN)C(=O)N1CCC[C@H]1C(=O)N[C@@H](CCCCN)C(=O)N1CCC[C@H]1C(=O)N[C@H](C(=O)N1CCC[C@H]1C(=O)N[C@@H](CC(C)C)C(=O)N[C@@H](CCCNC(=N)N)C(=O)N[C@@H](CCCCN)C(=O)O)C(C)C	Mapk1	enzyme activity, inhibitor, fluorescence	–	pH 7.4	–	IC50	28000 nM
COc1cc(CN2CCN(C(=O)Cc3ccccc3)CC2)cc(OC)c1O	Alpha-synuclein (SNCA, Homo sapiens, UniProt P37840)	fibril growth, ELISA and FlAsH	–	20 h, with: 6 µM monomer	–	IC50	2000 ± 1000 nM
COc1ccccc1-c1n[nH]c2nc(N[C@H]3CC[C@H](NS(=O)(=O)CC(C)C)CC3)ncc12	–	bead binding, competition bead pull-down, measured: LINJ.23.0410	Leishmania donovani extract	10 µM	relative to: vehicle	relative abundance	0.71
CC(C)C[C@H](NC(=O)CNC(=O)[C@H](CCCNC(=N)N)NC(=O)[C@H](CCCNC(=N)N)NC(=O)[C@H](C)NC(=O)[C@H](CS)NC(=O)[C@H](CC(C)C)NC(=O)[C@H](C)NC(=O)[C@@H](N)Cc1ccc(O)cc1)C(=O)N[C@@H](Cc1ccc(O)cc1)C(=O)N[C@@H](CS)C(=O)N[C@@H](CC(C)C)C(=O)N[C@@H](CO)C(=O)N[C@@H](CC(C)C)C(=O)N[C@@H](CC(=O)O)C(=O)N[C@@H](Cc1c[nH]cn1)C(=O)O	Mapk1	enzyme activity, inhibitor, fluorescence	–	pH 7.4	–	IC50	47000 nM
O=S(=O)(N/N=C/c1ccc(OS(=O)(=O)c2ccc(Br)cc2)cc1)c1ccc(Cl)cc1	CA1	enzyme activity, inhibitor, absorbance	–	–	–	IC50	63.6 nM
CC(C)C[C@H](NC(=O)[C@H](CC(=O)O)NC(=O)[C@@H](N)Cc1ccc(O)cc1)C(=O)N1CCC[C@H]1C(=O)N[C@@H](Cc1ccccc1)C(=O)N[C@H](CCC(=O)O)C(=O)N[C@@H](Cc1ccccc1)C(N)=O	Transcriptional regulator PlcR	reporter gene, inhibitor, lacZ reporter	407 Cry−	1 h, phase, late exponential, added at	–	IC50	588 ± 77 nM
C[C@H](Oc1ccc(C(=O)c2ccc(F)cc2)cc1)C(=O)N1CCc2ccc(C(F)(F)F)cc21	PFF0160c E182D	enzyme activity, inhibitor, absorbance	–	–	–	IC50	463 nM
CC[C@H](C)[C@H](NC(=O)[C@H](C)NC(=O)[C@H](CCC(=O)O)NC(=O)[C@H](CC(C)C)NC(=O)[C@H](CO)NC(=O)[C@H](CCCNC(=N)N)NC(=O)[C@H](CCCNC(=N)N)NC(=O)[C@H](CC(C)C)NC(=O)[C@H](CC(C)C)NC(=O)[C@@H](NC(=O)[C@H](C)NC(=O)[C@@H](N)Cc1ccc(O)cc1)[C@@H](C)CC)C(=O)N[C@@H](CCC(=O)O)C(=O)N[C@@H](CC(C)C)C(=O)NCC(=O)N[C@@H](CC(C)C)C(=O)O	Mapk1	enzyme activity, inhibitor, fluorescence	–	pH 7.4	–	IC50	75700 nM
CS(C)(=O)=Nc1ccc(-c2ccc(-c3nc4cc(O[C@@H]5CO[C@H]6[C@@H]5OC[C@H]6O)[nH]c4cc3F)cc2)cc1	Serine/threonine-protein kinase Sgk2 (SGK2, Homo sapiens, UniProt Q9HBY8)	enzyme activity, inhibitor	–	10 µM	–	inhibition	-6%

Excerpt of the above:
Structure (SMILES)	tested on	assay	system	setting	scale	measurement	result
C=C1NC(=O)[C@H](CCSC)NC(=O)[C@H](Cc2ccc(O)cc2)NC(=O)[C@H](CC(N)=O)NC(=O)CNC(=O)CNC(=O)[C@H](CC(N)=O)NC(=O)[C@H](Cc2c[nH]cn2)NC(=O)[C@H](CCC(=O)O)NC(=O)[C@H](Cc2ccc(O)cc2)NC(=O)[C@H](CO)NC(=O)[C@H](Cc2c[nH]c3ccccc23)NC(=O)[C@H](Cc2c[nH]c3ccccc23)NC(=O)c2ccc(-c3nc(C(=O)OC)cs3)nc2-c2csc1n2	TRAF2 and NCK-interacting protein kinase (TNIK, Homo sapiens, UniProt Q9UKE5)	enzyme activity, inhibitor, ADP detection	–	–	–	IC50	2500 nM
O=C(CF)N[C@H]1[C@H]([C@H](O)[C@H](O)CNC(=O)c2ccc(Oc3ccccc3)cc2)O[C@@](OCc2cccc(Cl)c2Cl)(C(=O)O)C[C@@H]1O	B-cell receptor CD22 (CD22, Homo sapiens, UniProt P20273)	ligand binding, inhibitor, competitive bead binding flow cytometry	–	with: 6'SLN(Gc)-PAA-biotin beads	–	IC50	1010 ± 20 nM
